{"data": "Measurements gathered from unrelated publications", "note": "A part holds a random share of what one study measured."}
{"data": "Series 1", "target": "RING finger protein unkempt homolog, zinc fingers 1-6, SBP tag (UNK, Homo sapiens, UniProt Q9C0B0, residues 30-357)", "technique": "RNA Bind-n-Seq", "form": "RNA", "matrix": "in vitro", "concentration": "100 nM", "notes": "RNA with constant flanks, vertebrate orthologous sites, ends assumed", "reference": "input RNA pool", "direction": "higher = stronger binding", "chain of UniProt Q9C0B0 (30-357, looked up)": "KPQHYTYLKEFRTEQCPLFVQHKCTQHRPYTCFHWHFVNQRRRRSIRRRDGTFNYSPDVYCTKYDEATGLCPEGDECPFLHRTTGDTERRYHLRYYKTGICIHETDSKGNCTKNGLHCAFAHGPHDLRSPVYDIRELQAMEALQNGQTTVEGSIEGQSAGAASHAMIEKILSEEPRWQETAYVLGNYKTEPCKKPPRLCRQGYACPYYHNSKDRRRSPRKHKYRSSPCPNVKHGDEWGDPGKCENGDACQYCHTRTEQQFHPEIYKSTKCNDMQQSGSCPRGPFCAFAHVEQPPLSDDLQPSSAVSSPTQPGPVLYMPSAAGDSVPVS"}
{"Strand": "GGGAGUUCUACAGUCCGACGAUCGGUGGUGGUUGUGCAUAUAAUUUCAUUUAUAAAAUAUAAACCUACAUUUUGUUUUGAAGCUAGGUAUUAAACUUGGAGUAGCUAUACACCCCUGAGAAAUGGGCACUGUGCCCUCACCCUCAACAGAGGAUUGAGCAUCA", "bound/input enrichment [ratio]": 0.827}
{"Strand": "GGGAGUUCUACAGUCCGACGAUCAACUUAAUAUUGUGGCAUAUAGUCAACAUGGAUGUAGACCAGCUCUGCUGAUUUGAAAUUUAGAUAUUUUUAAUUAUGUACUGGGGACAGGUUUUUGUCGCUUUACAUUGCUUCCUAGUUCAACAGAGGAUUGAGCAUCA", "bound/input enrichment [ratio]": 2.69}
{"Strand": "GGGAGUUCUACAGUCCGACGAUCCCUACAAUAAUGAAAAUCUACAGAAAUUUUUUUAUUUUUCAUUAUCCCCUUAGGCAUAUUUAGGCUUUCUUCCCCAGGCAGAUCAUUCUGAGUGUGCGAGUGUGUGUGCACAUGUUACAACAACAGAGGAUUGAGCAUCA", "bound/input enrichment [ratio]": 0.697}
{"Strand": "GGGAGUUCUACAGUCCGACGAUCAAAUUUAUUUCAUGCCCUGGACUCCCUACCGUACUGAUACUUUGAUUGAGUAUGCUUCUUUAGAAGAUUUCCAAAACAGUCGCCAAACAACAACAUAUAAACUUCCAAAUCGAGUAGAUGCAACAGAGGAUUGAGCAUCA", "bound/input enrichment [ratio]": 0.778}
{"Strand": "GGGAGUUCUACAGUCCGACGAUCUGUGUUGGUGCAGAGUGCUCUGUACCAGUGCUCAUCAUCCCUUCUUCAUACCAACAGCCCUAGUUACAGGAAUUAAUAUUUUUUAAAAUUUACAUUGCUGUAUAUUCAAAGAUUUGUUUUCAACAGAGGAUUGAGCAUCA", "bound/input enrichment [ratio]": 0.312}
{"Strand": "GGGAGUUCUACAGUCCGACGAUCUUUUUAAAGUUUUUUUUUAAUUUAAUUUUCCCUUUUGGGGGUAAAGUUUGCUCUACCAAAUAGUGAUUGUAACAAAUUGAUUUGUUAUGGAUGUUGCUAUAGUGACAUGCAGUUACAUAUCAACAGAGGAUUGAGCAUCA", "bound/input enrichment [ratio]": 0.794}
{"data": "Series 2", "target": "Prothrombin, mature alpha-thrombin (F2, Homo sapiens, UniProt P00734)", "technique": "aptamer microarray, sandwich", "form": "DNA with 2'F-ANA", "matrix": "in vitro", "concentration": "200 nM", "notes": "whole 15-mer aptamer, many near background", "with": "Cy3 exosite-II aptamer, 400 nM", "direction": "higher = stronger binding", "strand": "GGTTGGTGTGGTTGG"}
{"Modification": "2'F-ANA at 1 2 3 5 6 8 9 12 15", "mean fluorescence intensity [a.u.]": 132}
{"Modification": "2'F-ANA at 2 3 5 6 7 8 9 10 14 15", "mean fluorescence intensity [a.u.]": 53.5}
{"Modification": "2'F-ANA at 1 4 10 11", "mean fluorescence intensity [a.u.]": 46}
{"Modification": "2'F-ANA at 1 2 4 10 14 15", "mean fluorescence intensity [a.u.]": 48.3}
{"Modification": "2'F-ANA at 1 2 3 4 6 7 8 13 14", "mean fluorescence intensity [a.u.]": 68.4}
{"Modification": "2'F-ANA at 2 3 4 5 8 9 12 14", "mean fluorescence intensity [a.u.]": 75.8}
{"Modification": "2'F-ANA at 3 4 5 12 13 14 15", "mean fluorescence intensity [a.u.]": 57.1}
{"Modification": "2'F-ANA at 1 3 5 6 7 8 9 10 12 13 14", "mean fluorescence intensity [a.u.]": 49.3}
{"Modification": "2'F-ANA at 4 9 13 15", "mean fluorescence intensity [a.u.]": 197}
{"data": "Series 3", "target": "Histone acetyltransferase KAT6A, winged helix 1, GST fusion (KAT6A, Homo sapiens, UniProt Q92794, residues 1-85)", "technique": "protein binding microarray", "form": "double-stranded DNA, one strand shown", "matrix": "in vitro", "concentration": "not given", "notes": "8-mer, flanks averaged, mean of 2 arrays, mostly near background", "reference": "not given", "direction": "higher = stronger binding", "Residues (chain)": "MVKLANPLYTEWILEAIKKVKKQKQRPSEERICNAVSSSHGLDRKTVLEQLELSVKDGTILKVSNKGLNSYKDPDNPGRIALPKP"}
{"Strand": "AAGTTAAC", "E-score": -0.092}
{"Strand": "AAGGTACG", "E-score": 0.153}
{"Strand": "ATCACGGA", "E-score": 0.176}
{"Strand": "ATTGCATC", "E-score": -0.0959}
{"Strand": "CACCCGTA", "E-score": 0.303}
{"Strand": "AGAATCTG", "E-score": -0.15}
{"Strand": "GTGTTGGA", "E-score": -0.291}
{"Strand": "GATCGTAC", "E-score": -0.131}
{"Strand": "CACAGGTA", "E-score": -0.124}
{"Strand": "AATGGCCC", "E-score": -0.00724}
{"data": "Other studies, line by line"}
{"Molecule": "PhoQ, residues 284 288 289 292 302 303 SSTLLI", "target": "PhoP, residues 12 14 15 18 19 TPLRH (Escherichia coli, UniProt P23836)", "assay": "Sort-seq, item: YFP reporter", "system": "E. coli", "setting": "PhoQ-PhoP variant library, with: 10 µM Mg2+", "scale": "reference: high Mg2+ state, higher = stronger signaling", "quantity": "fold induction", "value": 0.611}
{"note": "Repeated from above (series 3):"}
{"Strand": "AATGGCCC", "E-score": -0.00724}
{"Strand": "AGAATCTG", "E-score": -0.15}
